# Assay results from different studies.
# Compare with care: the assays were run in different laboratories. Numbers after ± are the reported error.
# Sequence of UniProt O75469 (whole entry, looked up): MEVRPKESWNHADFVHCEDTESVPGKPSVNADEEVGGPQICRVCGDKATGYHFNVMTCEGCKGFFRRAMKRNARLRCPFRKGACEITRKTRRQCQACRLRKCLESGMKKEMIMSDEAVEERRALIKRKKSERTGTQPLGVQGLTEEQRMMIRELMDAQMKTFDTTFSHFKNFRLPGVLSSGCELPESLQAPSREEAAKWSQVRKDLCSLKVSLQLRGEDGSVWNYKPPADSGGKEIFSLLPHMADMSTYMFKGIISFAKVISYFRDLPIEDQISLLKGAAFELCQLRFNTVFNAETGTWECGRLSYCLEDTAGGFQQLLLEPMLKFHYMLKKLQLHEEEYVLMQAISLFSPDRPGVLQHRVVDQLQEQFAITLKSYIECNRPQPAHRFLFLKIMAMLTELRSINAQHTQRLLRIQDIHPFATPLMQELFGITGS
# Sequence of UniProt Q08499 (whole entry, looked up): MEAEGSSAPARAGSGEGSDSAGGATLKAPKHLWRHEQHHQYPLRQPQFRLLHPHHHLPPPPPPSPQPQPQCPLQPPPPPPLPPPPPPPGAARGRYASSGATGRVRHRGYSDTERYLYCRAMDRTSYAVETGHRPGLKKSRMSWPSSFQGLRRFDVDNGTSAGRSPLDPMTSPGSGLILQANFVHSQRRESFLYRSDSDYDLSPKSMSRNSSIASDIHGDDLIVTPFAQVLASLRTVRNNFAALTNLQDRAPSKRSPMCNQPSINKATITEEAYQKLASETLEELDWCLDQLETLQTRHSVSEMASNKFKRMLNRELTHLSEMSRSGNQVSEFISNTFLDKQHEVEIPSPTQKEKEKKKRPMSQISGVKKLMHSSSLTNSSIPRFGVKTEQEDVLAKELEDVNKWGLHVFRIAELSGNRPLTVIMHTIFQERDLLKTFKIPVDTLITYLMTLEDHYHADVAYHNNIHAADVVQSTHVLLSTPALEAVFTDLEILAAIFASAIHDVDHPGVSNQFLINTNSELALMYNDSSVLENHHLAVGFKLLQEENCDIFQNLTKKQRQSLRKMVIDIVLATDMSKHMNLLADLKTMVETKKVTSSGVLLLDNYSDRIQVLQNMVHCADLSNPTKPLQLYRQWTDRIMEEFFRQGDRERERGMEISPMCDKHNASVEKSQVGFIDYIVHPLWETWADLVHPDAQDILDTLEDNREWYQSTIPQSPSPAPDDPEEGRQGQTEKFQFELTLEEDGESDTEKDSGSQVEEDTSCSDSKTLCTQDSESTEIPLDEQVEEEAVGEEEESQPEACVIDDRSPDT
# Sequence of UniProt P11510 (whole entry, looked up): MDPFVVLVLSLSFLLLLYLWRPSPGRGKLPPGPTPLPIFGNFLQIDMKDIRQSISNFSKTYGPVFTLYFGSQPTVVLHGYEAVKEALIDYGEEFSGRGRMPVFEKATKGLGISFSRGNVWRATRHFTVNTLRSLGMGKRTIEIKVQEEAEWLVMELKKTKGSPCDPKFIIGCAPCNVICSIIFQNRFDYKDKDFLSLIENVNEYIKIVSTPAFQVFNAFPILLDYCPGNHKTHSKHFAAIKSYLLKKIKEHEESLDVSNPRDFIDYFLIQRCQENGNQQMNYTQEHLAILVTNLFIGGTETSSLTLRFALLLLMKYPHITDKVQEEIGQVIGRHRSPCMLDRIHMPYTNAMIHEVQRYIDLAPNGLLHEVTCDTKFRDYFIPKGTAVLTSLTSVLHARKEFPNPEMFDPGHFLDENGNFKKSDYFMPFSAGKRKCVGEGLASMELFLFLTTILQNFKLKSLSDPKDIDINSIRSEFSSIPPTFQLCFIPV
# Sequence of UniProt P08684 (whole entry, looked up): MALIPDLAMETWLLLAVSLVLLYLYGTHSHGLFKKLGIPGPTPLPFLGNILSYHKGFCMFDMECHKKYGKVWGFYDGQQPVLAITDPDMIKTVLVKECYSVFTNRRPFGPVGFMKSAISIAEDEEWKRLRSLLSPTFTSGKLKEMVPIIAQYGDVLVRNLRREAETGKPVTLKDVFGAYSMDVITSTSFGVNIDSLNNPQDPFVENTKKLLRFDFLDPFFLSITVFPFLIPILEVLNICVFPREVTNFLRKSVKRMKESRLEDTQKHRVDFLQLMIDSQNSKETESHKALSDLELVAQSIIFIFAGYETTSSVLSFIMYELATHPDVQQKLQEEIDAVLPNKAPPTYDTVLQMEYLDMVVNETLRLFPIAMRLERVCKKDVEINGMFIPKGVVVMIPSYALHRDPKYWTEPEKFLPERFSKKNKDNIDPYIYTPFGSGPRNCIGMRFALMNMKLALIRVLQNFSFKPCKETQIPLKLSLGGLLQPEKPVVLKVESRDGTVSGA
# Sequence of UniProt P10632 (whole entry, looked up): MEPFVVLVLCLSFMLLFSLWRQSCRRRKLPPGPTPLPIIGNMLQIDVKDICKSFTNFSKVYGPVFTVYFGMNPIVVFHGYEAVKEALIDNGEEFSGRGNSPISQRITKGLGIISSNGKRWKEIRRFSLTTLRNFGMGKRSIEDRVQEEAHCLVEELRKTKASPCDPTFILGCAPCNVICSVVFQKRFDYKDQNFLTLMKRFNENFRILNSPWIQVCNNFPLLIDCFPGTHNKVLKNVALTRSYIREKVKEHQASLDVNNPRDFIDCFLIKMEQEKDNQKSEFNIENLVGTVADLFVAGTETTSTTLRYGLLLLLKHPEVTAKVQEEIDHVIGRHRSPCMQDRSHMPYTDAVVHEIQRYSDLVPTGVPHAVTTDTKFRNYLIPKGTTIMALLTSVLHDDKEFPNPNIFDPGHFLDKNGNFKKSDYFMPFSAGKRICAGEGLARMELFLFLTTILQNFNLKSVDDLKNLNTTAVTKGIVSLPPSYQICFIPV
SMILES,tested on,assay,system,conditions,scale,measurement,result
CCCCCCCCCCCCCCCC[n+]1ccn(Cc2ccccc2)c1C,Trypanosoma brucei,"cell viability, flow cytometry, PI",bloodstream form,24 h,,EC50,0.34 ± 0.01 µM
NS(=O)(=O)Nc1ncnc(OCCOc2ncc(Br)cn2)c1-c1ccc(Br)cc1,"Cytochrome P450 2C12, female-specific (Cyp2c12, Rattus norvegicus, UniProt P11510)",metabolite formation,"female rat, recombinant enzyme",scaled by relative mRNA abundance,,contribution to total CLint,19%
[11CH3]Oc1ccc(Cc2cn[nH]c2)nc1-c1cccc([N+](=O)[O-])c1,"3',5'-cyclic-AMP phosphodiesterase 4D (PDE4D, Homo sapiens, UniProt Q08499)",PET,,"concentration not given, 60 to 120 min",,decline of brain radioactivity,7%
Clc1cccc(CNCCCNc2nc3ccccc3[nH]2)c1,Trypanosoma brucei,,,,reference: MRC-5 SV2 TC50 over EC50,selectivity index,147
Cc1cc(C(=O)Nc2nc3cccc(C)c3n2[C@H]2CCCCN(C(=O)/C=C/CN(C)C)C2)ccn1,Trypanosoma brucei,,HepG2,4 days,reference: HepG2 CC50 over T. brucei EC50,selectivity ratio,> 100 fold
O=C(O)CCC(NP(=O)(O)OCCC[C@@H](NC(=O)CC[C@H](NC(=O)CCCCCNC(=O)c1ccc([18F])cc1)C(=O)O)C(=O)O)C(=O)O (some centres unmarked),CWR22Rv1 tumour model,,"host not given, bone","1 h, tumour-bearing",,tracer uptake,0.193 %ID/g
Clc1ccc(CNCCCNc2nc3ccccc3[nH]2)cc1,Trypanosoma brucei,,,,reference: MRC-5 SV2 TC50 over EC50,selectivity index,23
[64Cu+2].c1cnc(CNCc2ccc(CN3CCCN4CCNCCCN(CC4)CC3)cc2)nc1,CXCR4,,"NOD/SCID mouse, U87 and U87-stb-CXCR4 xenografts, heart","iv, 240 min, ex vivo",,tissue uptake,1.47 ± 0.15 %ID/g
CCC(=O)N(C)c1ccc(Cl)c(Cl)c1,"Nuclear receptor subfamily 1 group I member 2 (NR1I2, Homo sapiens, UniProt O75469)","reporter gene, agonist",,1.0 µM,reference: vehicle,fold activation,0.48 fold
COc1ccc2cc(NC(=O)c3cc(-c4ccncc4)nc4ccccc34)ccc2c1,"Cytochrome P450 3A4 (CYP3A4, Homo sapiens, UniProt P08684)","substrate, refers to: metabolites M1 plus M2",baculosomes,,,kcat/Km,28700 M⁻¹ s⁻¹
N[C@H](CSC(F)(F)[18F])C(=O)O,C6 tumour model,,"male nude, tumour","intravenous, 3.7 MBq, 1 h, tumour-bearing",,tracer uptake,3.74 %ID/g
[64Cu+2].c1ccc(CNCc2ccc(CN3CCCN4CCNCCCN(CC4)CC3)cc2)nc1,CXCR4,,"NOD/SCID mouse, U87 and U87-stb-CXCR4 xenografts, liver","iv, 480 min, ex vivo",,tissue uptake,82 ± 11.7 %ID/g
Cn1c(=O)oc2ccc(-c3ccc(CC(C#N)NC(=O)C4CNCCCO4)c(F)c3)cc21 (centres unmarked),,refers to: macule,human volunteers,"oral, 40 mg, single ascending dose fed",,treatment-related adverse event incidence,0%
C=CC(=O)Nc1cc(Nc2nccc(-c3cn(C)c4ccccc34)n2)c(OCC(F)(F)F)nc1N(C)CCN(C)C,"Cytochrome P450 2C8 (CYP2C8, Homo sapiens, UniProt P10632)","enzyme activity, inhibitor","human, liver microsomes",0.1 µM,,activity vs control,103%

# Excerpt of the above:
SMILES,tested on,assay,system,conditions,scale,measurement,result
Cn1c(=O)oc2ccc(-c3ccc(CC(C#N)NC(=O)C4CNCCCO4)c(F)c3)cc21 (centres unmarked),,refers to: macule,human volunteers,"oral, 40 mg, single ascending dose fed",,treatment-related adverse event incidence,0%
